{"data": "Experimental data gathered from unrelated publications", "note": "Parts stem from different laboratories: compare values within a part only.", "UniProt P54578, sequence (whole entry, looked up)": "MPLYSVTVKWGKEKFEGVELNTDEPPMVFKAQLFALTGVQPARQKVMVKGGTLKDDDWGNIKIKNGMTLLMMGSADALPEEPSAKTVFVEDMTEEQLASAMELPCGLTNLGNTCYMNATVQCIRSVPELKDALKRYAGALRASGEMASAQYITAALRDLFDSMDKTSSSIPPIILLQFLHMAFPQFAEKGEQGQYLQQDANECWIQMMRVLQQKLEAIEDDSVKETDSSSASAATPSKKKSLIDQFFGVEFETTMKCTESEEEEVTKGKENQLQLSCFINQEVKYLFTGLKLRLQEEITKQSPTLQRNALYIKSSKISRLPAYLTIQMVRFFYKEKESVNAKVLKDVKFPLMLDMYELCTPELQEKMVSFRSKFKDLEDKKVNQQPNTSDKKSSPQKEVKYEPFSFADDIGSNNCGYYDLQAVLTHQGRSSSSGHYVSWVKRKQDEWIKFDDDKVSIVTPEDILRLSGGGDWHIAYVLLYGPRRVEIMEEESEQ", "UniProt O75604, sequence (whole entry, looked up)": "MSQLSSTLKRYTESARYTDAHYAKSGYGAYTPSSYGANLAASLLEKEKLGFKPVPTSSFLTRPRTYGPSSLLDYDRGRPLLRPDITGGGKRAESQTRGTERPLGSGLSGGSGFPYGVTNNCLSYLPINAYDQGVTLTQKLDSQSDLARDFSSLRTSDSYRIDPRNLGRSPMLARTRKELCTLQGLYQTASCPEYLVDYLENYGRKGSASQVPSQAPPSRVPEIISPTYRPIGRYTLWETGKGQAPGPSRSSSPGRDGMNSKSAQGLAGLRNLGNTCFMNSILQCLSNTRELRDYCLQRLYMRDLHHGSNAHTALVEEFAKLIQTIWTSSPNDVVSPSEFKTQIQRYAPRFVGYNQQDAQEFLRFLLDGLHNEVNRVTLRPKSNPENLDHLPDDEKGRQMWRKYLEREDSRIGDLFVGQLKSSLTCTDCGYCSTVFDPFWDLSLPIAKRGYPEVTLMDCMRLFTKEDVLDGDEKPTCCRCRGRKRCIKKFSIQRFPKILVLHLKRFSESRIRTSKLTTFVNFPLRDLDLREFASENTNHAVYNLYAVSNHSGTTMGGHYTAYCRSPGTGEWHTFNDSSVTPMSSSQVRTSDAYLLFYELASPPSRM", "UniProt P06239, sequence (whole entry, looked up)": "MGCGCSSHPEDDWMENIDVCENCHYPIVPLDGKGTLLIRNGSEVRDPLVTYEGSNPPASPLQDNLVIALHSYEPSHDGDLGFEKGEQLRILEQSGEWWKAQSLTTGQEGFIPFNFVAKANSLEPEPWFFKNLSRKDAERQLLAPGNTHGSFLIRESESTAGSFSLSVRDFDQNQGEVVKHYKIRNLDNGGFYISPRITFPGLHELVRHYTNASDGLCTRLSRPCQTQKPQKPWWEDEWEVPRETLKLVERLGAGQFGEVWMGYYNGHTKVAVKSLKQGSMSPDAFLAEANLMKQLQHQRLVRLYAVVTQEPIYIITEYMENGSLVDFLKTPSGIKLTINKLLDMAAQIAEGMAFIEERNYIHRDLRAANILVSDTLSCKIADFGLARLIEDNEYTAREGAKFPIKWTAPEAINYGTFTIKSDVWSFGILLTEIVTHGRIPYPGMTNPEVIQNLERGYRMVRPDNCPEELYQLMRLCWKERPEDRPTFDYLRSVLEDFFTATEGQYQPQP", "UniProt P54252, sequence (whole entry, looked up)": "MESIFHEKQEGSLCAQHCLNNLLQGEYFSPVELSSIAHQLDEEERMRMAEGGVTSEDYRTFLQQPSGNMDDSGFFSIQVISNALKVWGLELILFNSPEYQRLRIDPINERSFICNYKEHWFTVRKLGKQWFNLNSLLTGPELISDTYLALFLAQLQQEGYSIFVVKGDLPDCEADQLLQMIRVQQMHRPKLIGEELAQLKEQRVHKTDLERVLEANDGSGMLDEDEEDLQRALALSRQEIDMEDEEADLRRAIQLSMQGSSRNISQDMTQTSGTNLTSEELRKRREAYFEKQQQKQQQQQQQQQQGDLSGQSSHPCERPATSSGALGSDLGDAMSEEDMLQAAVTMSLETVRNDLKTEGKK", "UniProt P40818, sequence (whole entry, looked up)": "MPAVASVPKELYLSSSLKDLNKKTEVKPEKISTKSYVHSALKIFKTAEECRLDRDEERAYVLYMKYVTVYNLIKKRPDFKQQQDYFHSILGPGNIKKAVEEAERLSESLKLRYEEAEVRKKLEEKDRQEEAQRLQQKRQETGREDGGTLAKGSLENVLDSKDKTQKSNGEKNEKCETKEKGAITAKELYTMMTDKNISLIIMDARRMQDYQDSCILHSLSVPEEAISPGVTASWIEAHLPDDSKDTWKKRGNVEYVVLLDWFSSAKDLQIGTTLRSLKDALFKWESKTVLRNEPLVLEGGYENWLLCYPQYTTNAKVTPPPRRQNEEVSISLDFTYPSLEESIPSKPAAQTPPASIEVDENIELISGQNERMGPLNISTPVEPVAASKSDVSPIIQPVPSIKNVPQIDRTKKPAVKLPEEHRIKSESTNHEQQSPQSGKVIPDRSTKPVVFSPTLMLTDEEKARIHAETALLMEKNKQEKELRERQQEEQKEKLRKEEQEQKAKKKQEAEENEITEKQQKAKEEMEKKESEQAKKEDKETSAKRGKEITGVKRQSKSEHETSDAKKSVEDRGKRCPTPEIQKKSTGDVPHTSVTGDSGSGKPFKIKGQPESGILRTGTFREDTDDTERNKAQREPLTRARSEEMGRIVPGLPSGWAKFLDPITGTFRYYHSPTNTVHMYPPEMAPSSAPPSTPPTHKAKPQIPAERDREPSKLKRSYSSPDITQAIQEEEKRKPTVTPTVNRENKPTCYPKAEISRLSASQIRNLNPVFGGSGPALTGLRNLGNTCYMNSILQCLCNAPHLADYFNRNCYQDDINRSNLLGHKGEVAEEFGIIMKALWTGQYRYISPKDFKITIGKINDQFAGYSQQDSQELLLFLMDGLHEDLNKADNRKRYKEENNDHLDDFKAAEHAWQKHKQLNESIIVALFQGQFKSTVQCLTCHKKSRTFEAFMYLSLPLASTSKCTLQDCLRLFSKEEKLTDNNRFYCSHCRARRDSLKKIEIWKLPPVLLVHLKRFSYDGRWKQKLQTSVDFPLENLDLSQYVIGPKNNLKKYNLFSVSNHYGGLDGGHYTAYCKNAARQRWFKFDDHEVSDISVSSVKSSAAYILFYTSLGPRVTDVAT", "UniProt Q8N6M0, sequence (whole entry, looked up)": "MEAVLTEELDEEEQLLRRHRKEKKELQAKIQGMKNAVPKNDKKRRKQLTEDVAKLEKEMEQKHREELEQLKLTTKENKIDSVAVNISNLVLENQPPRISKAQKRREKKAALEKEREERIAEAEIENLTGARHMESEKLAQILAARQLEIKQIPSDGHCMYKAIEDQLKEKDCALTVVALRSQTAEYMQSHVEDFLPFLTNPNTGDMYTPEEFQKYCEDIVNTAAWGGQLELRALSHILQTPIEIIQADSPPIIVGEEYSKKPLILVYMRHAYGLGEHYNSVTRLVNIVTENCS", "UniProt P45974, sequence (whole entry, looked up)": "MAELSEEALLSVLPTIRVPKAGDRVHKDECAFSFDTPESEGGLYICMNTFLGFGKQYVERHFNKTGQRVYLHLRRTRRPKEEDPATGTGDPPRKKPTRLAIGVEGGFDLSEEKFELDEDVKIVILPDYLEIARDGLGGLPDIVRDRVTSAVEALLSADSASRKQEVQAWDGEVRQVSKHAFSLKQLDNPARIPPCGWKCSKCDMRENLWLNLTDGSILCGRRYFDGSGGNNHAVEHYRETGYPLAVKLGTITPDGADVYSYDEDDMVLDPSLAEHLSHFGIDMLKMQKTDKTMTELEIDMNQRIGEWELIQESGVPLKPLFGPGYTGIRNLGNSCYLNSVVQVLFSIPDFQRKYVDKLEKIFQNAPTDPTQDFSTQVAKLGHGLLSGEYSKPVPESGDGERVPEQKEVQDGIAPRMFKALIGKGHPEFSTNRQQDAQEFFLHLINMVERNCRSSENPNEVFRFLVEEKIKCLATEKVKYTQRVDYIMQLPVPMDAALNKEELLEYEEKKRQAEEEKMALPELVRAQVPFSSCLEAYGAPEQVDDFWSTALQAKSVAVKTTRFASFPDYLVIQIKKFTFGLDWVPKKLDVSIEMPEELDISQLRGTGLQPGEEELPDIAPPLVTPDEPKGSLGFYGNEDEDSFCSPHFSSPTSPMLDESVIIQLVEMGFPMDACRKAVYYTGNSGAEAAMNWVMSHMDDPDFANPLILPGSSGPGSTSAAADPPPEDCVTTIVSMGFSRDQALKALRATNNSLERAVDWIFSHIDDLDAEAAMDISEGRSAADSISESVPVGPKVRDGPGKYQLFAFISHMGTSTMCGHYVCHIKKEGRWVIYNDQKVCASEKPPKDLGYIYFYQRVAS", "UniProt P15374, sequence (whole entry, looked up)": "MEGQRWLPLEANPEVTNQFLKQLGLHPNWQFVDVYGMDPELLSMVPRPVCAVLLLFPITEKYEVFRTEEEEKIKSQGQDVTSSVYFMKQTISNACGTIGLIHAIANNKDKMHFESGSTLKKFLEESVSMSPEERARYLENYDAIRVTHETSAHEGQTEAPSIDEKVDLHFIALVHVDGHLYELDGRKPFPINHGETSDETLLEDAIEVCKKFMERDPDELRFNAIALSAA"}
{"data": "Set 1", "target": "HLA class I histocompatibility antigen, A alpha chain, allele A*26:03 (Homo sapiens, UniProt P04439)", "effect on": "peptide-MHC binding", "form": "peptide", "concentration": "concentration not given"}
{"Molecule": "YMREVGAAL", "binding": "inactive"}
{"Molecule": "KRLLLKLDF", "binding": "inactive"}
{"Molecule": "YFENSDLNL", "binding": "inactive"}
{"Molecule": "ESIDDAAGE", "binding": "inactive"}
{"Molecule": "IATLYCVHQK", "binding": "inactive"}
{"Molecule": "IHLDKGGQF", "binding": "inactive"}
{"Molecule": "AEALLADGL", "binding": "inactive"}
{"Molecule": "KSNRIPFLY", "binding": "inactive"}
{"data": "Set 2", "target": "UBE2D4 UBC core domain (UniProt Q9Y2X8)", "technique": "yeast two-hybrid", "sample": "yeast", "setting": "mostly zero background", "baseline": "not given", "reading": "higher = stronger interaction", "B1": "TRIM8 RING domain (UniProt Q9BZR9); chain WKNCFEEELICPICLHVFVEPVQLPCKHNFCRGCIGEAWAKDSGLVRCPECNQAYNQKPGLE", "B2": "UHRF2 RING domain (UniProt Q96PU4); chain CGGDPEKKCHSCSCRVCGGKHEPNMQLLCDECNVAYHIYCLNPPLDKVPEEEYWYCPSCKTDSSEVVKAGER", "B3": "MID1 RING domain (UniProt O15344); chain METLESELTCPICLELFEDPLLLPCAHSLCFNCAHRILVSHCATNESVESITAFQCPTCRHVITLSQRGL", "Target sequence (chain)": "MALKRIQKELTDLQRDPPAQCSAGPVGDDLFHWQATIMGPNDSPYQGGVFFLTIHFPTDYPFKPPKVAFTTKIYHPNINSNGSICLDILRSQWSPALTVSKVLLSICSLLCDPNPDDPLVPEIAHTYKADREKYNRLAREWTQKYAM"}
{"Molecule": "B1 (TRIM8 RING domain)", "lacZ reporter activity": 0}
{"Molecule": "QLRRLQEERTCKVCMDKEVSIVFIPCGHLVVCKDCAPSLRKCPICRSTIKGTVRTF (BIRC3 RING domain (UniProt Q13489))", "lacZ reporter activity": 0}
{"Molecule": "PEELQAMDNVCIICREEMVTGAKRLPCNHIFHTSCLRSWFQRQQTCPTCRMDVLRASLPA (SYVN1 RING domain (UniProt Q86TM6))", "lacZ reporter activity": 0}
{"Molecule": "FASPPDSNFVCSVCHGVLKRPARLPCSHIFCKKCILRWLARQKTCPCCRKEVKRKKVVH (RNF151 RING domain (UniProt Q2KHN1))", "lacZ reporter activity": 0}
{"Molecule": "B2 (UHRF2 RING domain)", "lacZ reporter activity": 0}
{"Molecule": "KTLSRFGIQPCSICLGDAKDPVCLPCDHVHCLRCLRAWFASEQMICPYCLTALPDEFSPA (RNF213 RING domain (UniProt Q63HN8))", "lacZ reporter activity": 0}
{"Molecule": "QLRRLQEERTCKVCMDKEVSVVFIPCGHLVVCQECAPSLRKCPICRGIIKGTVRTF (BIRC2 RING domain (UniProt Q13490))", "lacZ reporter activity": 0}
{"Molecule": "B3 (MID1 RING domain)", "lacZ reporter activity": 0}
{"data": "Set 3", "Molecule": "ubiquitin aldehyde", "effect on": "enzyme activity"}
{"target": "USP14 (Homo sapiens, UniProt P54578)", "concentration": "0.1 µM", "inhibition": "100%"}
{"target": "UCHL3 (Homo sapiens, UniProt P15374)", "concentration": "0.001 µM", "inhibition": "33%"}
{"target": "Ataxin-3 (ATXN3, Homo sapiens, UniProt P54252)", "action": "inhibitor", "concentration": "10 µM", "inhibition": "96%"}
{"target": "OTUD6B (Homo sapiens, UniProt Q8N6M0)", "concentration": "0.01 µM", "inhibition": "6%"}
{"target": "USP5 (Homo sapiens, UniProt P45974)", "concentration": "0.1 µM", "inhibition": "57%"}
{"target": "USP10 (Homo sapiens, UniProt Q14694)", "concentration": "1 µM", "inhibition": "83%"}
{"target": "USP2 (Homo sapiens, UniProt O75604)", "concentration": "1 µM", "inhibition": "96%"}
{"target": "USP8 (Homo sapiens, UniProt P40818)", "concentration": "1 µM", "inhibition": "85%"}
{"data": "Single results of other studies"}
{"SMILES": "O=C1NC(=O)c2c1c1c3ccccc3n3c1c1c2c2ccccc2n1[C@H]1CC[C@@H]3O1", "target": "Tyrosine-protein kinase Lck (LCK, Homo sapiens, UniProt P06239)", "effect on": "enzyme activity", "action": "inhibitor", "concentration": "0.5 µM", "baseline": "control", "quantity": "remaining activity", "result": "36.2%"}
{"note": "Some of these lines once more (set 3):"}
{"target": "USP5 (Homo sapiens, UniProt P45974)", "concentration": "0.1 µM", "inhibition": "57%"}
{"target": "USP10 (Homo sapiens, UniProt Q14694)", "concentration": "1 µM", "inhibition": "83%"}
{"target": "USP2 (Homo sapiens, UniProt O75604)", "concentration": "1 µM", "inhibition": "96%"}
{"target": "USP8 (Homo sapiens, UniProt P40818)", "concentration": "1 µM", "inhibition": "85%"}
